Assay results collected from several papers.
Compare with care: the assays were run in different laboratories.

Structure (SMILES)	test	test system	setting	measurement	value
CC(C)Oc1ncnc2c1c(Cl)cn2[C@@H]1O[C@H](CO)[C@@H](O)[C@H]1O		mouse liver microsomes	phase I metabolism	time to complete degradation	≤ 15 min
C=C(C)C(=O)NCCCCCC(=O)N[C@@H](Cc1ccccc1)C(=O)N[C@@H](CCCCN)C(=O)N[C@@H](Cc1ccccc1)C(=O)N[C@@H](CC(C)C)C(=O)NCCCCCC(=O)N[C@@H](CCCCN)C(=O)N[C@@H](CCCCN)C(=O)N[C@@H](CCCCN)C(=O)N[C@@H](CCCCN)C(=O)N[C@@H](CCCCN)C(=O)N[C@@H](CCCCN)C(=O)N[C@@H](CCCCN)C(=O)N[C@@H](CCCCN)C(=O)N[C@@H](CCCCN)C(=O)N[C@@H](CCCCN)C(N)=O	MALDI-TOF MS	mouse serum	37 °C	time to onset of degradation	≤ 1 h
CCCC1OC2CC3C4CCC5=CC(=O)C=CC5(C)C4C(O)CC3(C)C2(C(=O)COC(=O)C(C)N)O1 (centres unmarked)		human plasma	200 µg/mL, 37 °C	time to complete hydrolysis	≤ 8 h
CC[C@H](C)[C@@H]1NC(=O)[C@H](Cc2ccc(O)cc2)NC(=O)[C@@H](N)CSSC[C@@H](C(=O)N2CCC[C@H]2C(=O)N[C@@H](CC(C)C)C(=O)NCC(=O)O)NC(=O)[C@H](CC(N)=O)NC(=O)[C@H](CCC(N)=O)NC1=O	capillary electrophoresis	50 mM phosphate buffer	pH 2.0, 70 °C, 0.1 mg/mL oxytocin	time to peak degradant	72 h
O=C1c2ccc3c4ccc5c6c(ccc(c7ccc(c2c37)C(=O)N1CCN1CCCCC1)c64)C(=O)N(CCN1CCCCC1)C5=O		buffer 10 mM	40 µM, pH 7	time to complete precipitation	≤ 2 days
N=C(N)NCCC[C@H]1NC(=O)[C@H](N)CSSC[C@H](C(N)=O)NC(=O)[C@@H](CCCNC(=N)N)NC(=O)[C@@H](CCCNC(=N)N)NC(=O)[C@@H](CCCNC(=N)N)NC(=O)[C@@H](CCCNC(=N)N)NC(=O)[C@@H](Cc2c[nH]c3ccccc23)NC(=O)[C@@H](CCCNC(=N)N)NC1=O	HPLC	PBS	concentration not given, pH 7.4, room temperature, added: GSH 4 mM	time to near-complete reduction	≤ 1 min
CCCC1OC2CC3C4CCC5=CC(=O)C=CC5(C)C4C(O)CC3(C)C2(C(=O)COC(=O)CN)O1 (centres unmarked)			concentration not given, pH 7.4, 37 °C	time to near-complete hydrolysis	≤ 24 h
CC[C@H](C)[C@H](NC(=O)[C@@H](N)[C@@H](C)O)C(=O)N[C@@H](CCCCN)C(=O)N[C@H](C(=O)N1CCC[C@H]1C(=O)N[C@@H](C)C(=O)NCC(=O)N[C@H](C(=O)O)[C@@H](C)O)[C@@H](C)CC	LC-MS/MS	human plasma	37 °C	time to reach limit of detection	2 h
CCCC1OC2CC3C4CCC5=CC(=O)C=CC5(C)C4C(O)CC3(C)C2(C(=O)COC(=O)CN(C)C)O1 (centres unmarked)			concentration not given, pH 7.4, 37 °C	time to near-complete hydrolysis	≤ 24 h
CC=C1C(OC2OC(CO)C(O)C(O)C2O)OC=C(C(=O)OC)C1CC(=O)OCC1OC(OCCc2ccc(O)cc2)C(O)C(O)C1O (centres unmarked)		mouse intestinal contents, anaerobic	10 µg/mL, 37 °C	time to complete consumption	≤ 1 h
C[C@H](NC(=O)[C@H](Cc1cnc[nH]1)NC(=O)[C@H](CO)NC(=O)[C@@H](N)CC(=O)O)C(=O)N[C@@H](CCCCN)C(=O)N[C@@H](CCCNC(=N)N)C(=O)N[C@@H](Cc1cnc[nH]1)C(=O)N[C@@H](Cc1cnc[nH]1)C(=O)NCC(=O)N[C@@H](Cc1ccc(O)cc1)C(=O)N[C@@H](CCCCN)C(=O)N[C@@H](CCCNC(=N)N)C(=O)N[C@@H](CCCCN)C(=O)N[C@@H](Cc1ccccc1)C(=O)N[C@@H](Cc1cnc[nH]1)C(=O)N[C@@H](CCC(=O)O)C(=O)N[C@@H](CCCCN)C(=O)N[C@@H](Cc1cnc[nH]1)C(=O)N[C@@H](Cc1cnc[nH]1)C(=O)N[C@@H](CO)C(=O)N[C@@H](Cc1cnc[nH]1)C(=O)N[C@@H](CCCNC(=N)N)C(=O)NCC(=O)N[C@@H](Cc1ccc(O)cc1)C(=O)O	cationic PAGE	pooled whole saliva supernatant G2, diluted 1:10	100 µg/mL, 37 °C	time to fragment appearance	1.5 h
